Assay results of several laboratories.
Every numbered part comes from another study and shows a few of its results, in no order. Changes are numbered by the printed parent chain.

Sample 1
Target: RNA binding protein fox-1 homolog 2, RRM domain, GST-SBP tag (RBFOX2, Homo sapiens, UniProt O43251-10, residues 100-194)
Technique: RNA Bind-n-Seq
Form: RNA
Sample: in vitro
Tested at: 365 nM
Notes: natural RNA segment, single round, ends assumed
Reference: no-protein control
Direction: higher = stronger binding
Quantity: RBNS enrichment (R)
Constant ends, left off below: GGGAGUUCUACAGUCCGACGAUC … UGGAAUUCUCGGGUGCCAA
Target sequence (chain): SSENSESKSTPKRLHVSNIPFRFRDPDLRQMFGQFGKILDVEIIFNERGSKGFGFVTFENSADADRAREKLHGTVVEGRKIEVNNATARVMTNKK
GGAACCUAAGAGCAUCGGUUGGAGUGUGACCUCUGAUGCCCCUGCAUUCCCGCCACUGUGUCUCUGUGUAUUGAAAGCCUCUCCUGUGACCACAGCCUGUGUUGACAGAU: 0.904
AAAAAUAUAAGAACUUGAUAUAUUUCAUUCUCUUAUAUAGUAUUCAUUUUCCUACCUAUAUUACACAAAAAAGUAUAGAAAAGAUUUAAGUAAUUUUGCCAUCCUAGGCU: 0.481
GUGACUGUCACAACUGUUAUGUUUUCCAGUAAACUAGAAGUACGAUAUUUGAUAAUUAUAUUUGUAUUUCACCACCUAAAUGUAAUGUUGAUUCCUCAAGAAUGAAAUGA: 1.34
AGUAUGUUUGAUUUUUAUCCACAAGAAUGAAUCUGAUUCAGAAUGCUUUUCAGCUGACAUACAGAGCACUAAAUACUUUACGGCAAAUCCAUAGGUCUGAAUCUCUUAAG: 0.569
UAAGCGUGUGUCUUUUUAACUUAGUCCUAAGGUAAUCCAUUCAGAAGACAGCUUGCCUUUGUGUUCCUAUGAAGACUGUCCCCAACCUUGGACGUGUCCCCUUUAUUUCA: 0.493
UUUUGUGACUUUGUGUGGUUCGAAUUUCUCAGUAUUUUAACCAGUGUGUUGAUGUUAAAGUCAAAGGCUGCAGUAUGUCUAUAUUCUUGCUGUACUCAUUGGUAGUUUCA: 0.804
GGCUCCGUGGCUGCCUGCUACUAGCCCUGAGUUCUUAAUGGGCUCUGGAGAGCACCUCCAUUAUCUCCUCUUGAAAGUUCCUAGCCAGCAGCGCGUUCUGCGGGGCCCAC: 0.406
CAUGUUCUUAAAACUCCUGGUGACUUUGUUCUUUUGCCAACGUAGAAAGCACAGUGGACGGGUUGUGUUUGUCCCAGCCCUCUCUGUAGGCUGAGCAGUGCAGCGGCGCC: 0.505
CAGCAGCUUCUUACCUGUGCGGGAGCGAAAAAGCUGGGCUUCAACAUGGCAGGUCUGUAGGGGUCAGACCCGAGCAGCCUGGACUUUACAGUUAUGUGAAACUGUCCACA: 0.274
UUCUGAGCAAACAAAUGUGCUCCAUUCUUUUCCUCCAUGCUCCUAGCGCAGAAUGUUUUCUUGCAGAGCCUAGAGUACUUUGUUAAUGUUCUUCCGUUUGCUGCAACGAU: 0.496
GUUGAAAGUCAAAUGUGGCUGUUGAGUCCACAGACCCCCAUCCUAAUUCCUGCACCUGGAGGAGUUCCCCAACCCCCGUGUUUGCGGGAGGAAGCAUUUGUACAGUGGCU: 0.55
GUUCAUUGUUUGCCCUGCUAGGAAUUAGAAGACAGACACCAUGUCCCAGGACAGUGUUACUUCUUCUGCAUGAUGUGUGGUAGACUCCCUUUGCUGGCUUGUGCAGUGAU: 13.9

Sample 2
Target: RING finger protein unkempt homolog, zinc fingers 1-6, GST-SBP tag (UNK, Homo sapiens, UniProt Q9C0B0, residues 30-357)
Sequence of UniProt Q9C0B0 (30-357, looked up): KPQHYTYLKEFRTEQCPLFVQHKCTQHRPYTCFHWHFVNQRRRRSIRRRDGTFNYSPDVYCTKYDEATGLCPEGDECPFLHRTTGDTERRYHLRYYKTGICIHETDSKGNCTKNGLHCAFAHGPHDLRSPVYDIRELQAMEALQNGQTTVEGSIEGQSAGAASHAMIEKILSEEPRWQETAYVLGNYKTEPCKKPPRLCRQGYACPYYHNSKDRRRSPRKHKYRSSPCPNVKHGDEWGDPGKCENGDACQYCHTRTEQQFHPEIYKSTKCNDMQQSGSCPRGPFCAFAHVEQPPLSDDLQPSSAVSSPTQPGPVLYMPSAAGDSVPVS
Technique: RNA Bind-n-Seq
Form: RNA
Sample: in vitro
Tested at: not given
Notes: RNA with constant flanks, ends assumed
Reference: input RNA pool
Direction: higher = stronger binding
Quantity: bound/input enrichment
Constant ends, left off below: GGGAGUUCUACAGUCCGACGAUC … CAACAGAGGAUUGAGCAUCA
AUCCCUGAGAAUGCUAUAUUUGGUCCCUGUGUCCUGAGCCAUACUUCCCUAUAUGACAGCACCGCUUUCAUAGCUCUCAAGUCUACUGACAAGAGAACAGUACCGUAUAUCUUUCGGGUA: 0.108 ratio
ACCACUGGUGGCAUUGAUGAUAUGUAUCUCAAGUAUUUUGUGGAAGCUGGUGCCAUGGCUGUCCGGAGAGUUUUAAAACGAGACCUGAAGCAUGUUGCAAAAGCUUCUGGAGCAAGUAUC: 0.114 ratio
UCAUUUGCUCCUGAAUCUUGCUCAUUCUUUUUCUCUAGGUCUUUUUCUUUUGAGUUUUCCCCGCUAUUCAACUUUCCGUUGUGUCCUUUUUUGCUGUCUCUGUGUUCCUCUCAUUCUCAA: 3.18 ratio
UUUCCAGAUCAAGGAUACAGAGGUCGAGGCCGAGGUGAAUAUUACUCCAGAGGUCGAAGCUACCGAGGUUCUUAUGGAGGGCGUGGCAGGGGUGGUAGGGGACACACUCGAGAUUAUCCU: 0.458 ratio
AUGUGAAUAAAAUGUACAAAUUUGUUGUGUUUUUUUAUGUUCUGAGGCUGACUUCCCGGUCUCCGAUUAAUUUUUUAGGAAGGCCUUGCAUGCCAUCAAAAGUACAUUUGGCUGUGGUUU: 0.516 ratio
CCACGCUGUGGUUUCAGCAAGCAGAUGGUGGAAAUUCUUCACAAACAUAAUAUUCAGUUCCGCAGUUUUGAUAUCUUCUCAGAUGAAGAGGUUCGACAGGGACUCAAAGCCUAUUCCAGU: 0.107 ratio

Sample 3
Target: JDP2, bZIP domain (human)
Technique: DHFR protein complementation
Sample: yeast
Notes: single substitutions, most at no-binding floor
Reference: wild-type JUN-FOS pair
Direction: higher = stronger binding
Quantity: binding fitness
Starting sequence: JUN, bZIP domain (human); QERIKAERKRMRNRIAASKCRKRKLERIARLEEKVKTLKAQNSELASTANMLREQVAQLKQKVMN; partner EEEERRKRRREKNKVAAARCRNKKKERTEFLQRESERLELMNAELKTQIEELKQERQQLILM
A29H: 0.143 natural log
L52E: -0.111 natural log
A29K: 0.109 natural log
N42S: 0.201 natural log
V56R: -0.323 natural log
A46W: 0.222 natural log
V35C: 0.272 natural log
N42F: 0.196 natural log
L52T: -0.249 natural log
L45D: -0.0333 natural log
E44K: 0.255 natural log
E44L: 0.196 natural log
V56S: -0.198 natural log
E33D: 0.267 natural log
E54L: 0.146 natural log
E33I: 0.158 natural log
K39C: 0.23 natural log

Sample 4
Target: CCNE2, cyclin fold, Cln2 fusion (human)
Technique: yeast growth competition, sequencing
Sample: yeast
Notes: weak parent motif
Reference: not given
Direction: higher = stronger binding
Quantity: normalised enrichment score
Starting sequence: DBF4 docking peptide (human); DDIVSKLVFDFVE; partner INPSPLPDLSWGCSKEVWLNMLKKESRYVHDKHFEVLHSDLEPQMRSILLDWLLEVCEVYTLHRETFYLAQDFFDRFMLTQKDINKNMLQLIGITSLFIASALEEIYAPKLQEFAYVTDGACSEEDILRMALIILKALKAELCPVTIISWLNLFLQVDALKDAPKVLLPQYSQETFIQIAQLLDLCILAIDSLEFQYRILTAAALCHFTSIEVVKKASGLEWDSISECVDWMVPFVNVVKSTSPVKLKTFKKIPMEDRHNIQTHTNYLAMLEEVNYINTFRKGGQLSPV
V4A: 0.0738
D2A: 0.269
F9A: -0.21
L7A: -0.131
F11A: 0.143
K6A: 0.00934

Sample 5
Target: Histone acetyltransferase KAT6A, both winged helices, GST fusion (KAT6A, Homo sapiens, UniProt Q92794, residues 1-181)
Technique: protein binding microarray
Form: double-stranded DNA, one strand shown
Sample: in vitro
Tested at: not given
Notes: 8-mer, flanks averaged, mean of 2 arrays, mostly near background
Reference: not given
Direction: higher = stronger binding
Quantity: E-score
Target sequence (chain): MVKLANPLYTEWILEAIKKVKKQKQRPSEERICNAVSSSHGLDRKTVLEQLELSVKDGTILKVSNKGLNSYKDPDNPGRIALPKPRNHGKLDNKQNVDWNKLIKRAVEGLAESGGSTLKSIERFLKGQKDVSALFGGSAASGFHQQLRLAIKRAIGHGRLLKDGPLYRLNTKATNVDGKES
CCTACTTA: -0.214
ACTAGCCA: -0.101
AAAGAGTA: -0.112
AACCATGG: -0.0384
ATGCACCG: -0.0348
ATGCGACC: 0.196
ACGAGTCA: -0.126
GGGCTAAA: 0.023
CGCCTCTC: -0.102
TACGCGAA: 0.242
CATTAGAG: -0.219
GGGGCTCA: -0.13
ACTTCTCA: -0.233
ATGAACGA: -0.0588
ACCACGCC: 0.0926
TACAGCTA: -0.225
ACCCGCGG: 0.372

Sample 6
Target: ABI1, truncated, D143A, DHFR fusion (Arabidopsis thaliana)
Technique: DHFR PCA, deep sequencing
Sample: yeast
Notes: methotrexate growth selection, single substitutions
With: (+)-ABA 710 µM
Reference: wild-type fitted maximum
Direction: higher = stronger binding
Quantity: relative binding score
Starting sequence: PYL1, truncated, DHFR fusion (Arabidopsis thaliana); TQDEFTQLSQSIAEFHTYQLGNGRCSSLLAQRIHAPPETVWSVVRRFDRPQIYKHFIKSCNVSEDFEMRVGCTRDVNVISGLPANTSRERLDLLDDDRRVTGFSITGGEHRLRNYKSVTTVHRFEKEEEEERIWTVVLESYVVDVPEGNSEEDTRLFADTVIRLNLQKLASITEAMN; partner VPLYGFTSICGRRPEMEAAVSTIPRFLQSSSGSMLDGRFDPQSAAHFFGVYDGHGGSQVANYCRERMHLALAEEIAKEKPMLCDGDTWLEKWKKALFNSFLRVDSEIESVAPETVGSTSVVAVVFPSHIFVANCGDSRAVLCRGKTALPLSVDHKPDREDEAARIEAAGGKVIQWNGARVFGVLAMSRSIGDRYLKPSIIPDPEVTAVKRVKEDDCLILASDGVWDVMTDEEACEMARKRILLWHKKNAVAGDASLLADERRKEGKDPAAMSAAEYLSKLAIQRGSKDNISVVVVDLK
D48M: 49.2%
E139W: 95%
A175I: 99.6%
D75P: -2.5%
A13P: 63.2%
Q51F: 101%
Y18D: 87.4%
D159V: 16.1%
Y18N: 96.9%
A30Y: 96.7%
A13S: 96.7%
L166Q: 84.7%
D144Q: 88.1%
T154L: 77.5%
S140K: 28.1%
T86A: 97.9%
C72G: 95.1%
I12C: 91.3%
G107D: 95.9%

Repeated from above (sample 6):
Y18D: 87.4%
D159V: 16.1%
Y18N: 96.9%
A30Y: 96.7%
A13S: 96.7%
L166Q: 84.7%
D144Q: 88.1%
T154L: 77.5%
S140K: 28.1%
T86A: 97.9%
